Results pooled from the literature.
Every numbered part comes from another study and shows a few of its results, in no order.

Series 1 — technique: protein-binding microarray; form: double-stranded DNA, one strand shown; matrix: in vitro; concentration: 250 nM; notes: 60-bp whole probe; with: salmon DNA 0.4 mg/ml; reference: random background probes; reading: higher = stronger binding; constant ends, left off below: GCCTAGCAC … GTCTTGATTCGCTTGACGCTGCTG
Target: Interferon regulatory factor 7, full length, phosphomimetic (IRF7, Homo sapiens, UniProt Q92985, residues 1-503, S101K/S471D/S472D/S475D/S476D/S477D/S483D/S484D/S487D)
UniProt Q92985, sequence (whole entry, unmodified, looked up): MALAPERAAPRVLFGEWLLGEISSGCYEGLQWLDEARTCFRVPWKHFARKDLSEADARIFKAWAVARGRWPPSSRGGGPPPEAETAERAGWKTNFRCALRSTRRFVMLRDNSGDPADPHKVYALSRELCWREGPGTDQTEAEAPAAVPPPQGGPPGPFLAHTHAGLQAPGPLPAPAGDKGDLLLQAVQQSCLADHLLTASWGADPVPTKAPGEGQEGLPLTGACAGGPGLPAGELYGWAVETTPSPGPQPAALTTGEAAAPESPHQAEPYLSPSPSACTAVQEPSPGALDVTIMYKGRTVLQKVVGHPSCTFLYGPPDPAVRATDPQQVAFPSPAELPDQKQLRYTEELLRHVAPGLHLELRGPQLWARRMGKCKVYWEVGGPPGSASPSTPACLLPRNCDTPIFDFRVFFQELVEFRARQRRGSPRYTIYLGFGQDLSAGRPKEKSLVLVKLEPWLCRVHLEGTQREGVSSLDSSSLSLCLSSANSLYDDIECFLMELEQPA
Strand | log fluorescence [z-score]
TCAGTCACCCATCTCAAACTGTGCTAG | -0.131
GAAAAATCTGGAACTAACAGGTGCTAG | -0.456
TTAGAACTGAGTTACGATTAGTGCTAG | -0.0689
TTAGACATCAGTATCGATTAGTGCTAG | 0.725
TTAGGTTTCGGGTTTCGCTTAGTGCTA | 12.1
CTTTAACTTATTCTCTACTTGTGCTAG | 1.25
AGAGTCACCCATCTCAACAAGTGCTAG | -0.177
GTGACTCTGAACCTTGGGCTGTGCTAG | 0.274
GACGATATGGGGTATCGAGACGTGCTA | -0.515
GGCGGTTTCCTTTTCCTGACGTGCTAG | 6.55
GACGATTTCAGTTCCGAGACGTGCTAG | 0.425
TCACGCTTCATCTCCCAGACTGTGCTA | 0.678
CATCGTAAGCAAAAATGATTGTGCTAG | -0.247
TTAGGACTGGACTAGCGGTTAGTGCTA | -0.277
GACGTTATCCTACTGCTGACGTGCTAG | 0.442
GACTCTTCAGCACTCGGGTCGTGCTAG | 0.713
GACGGTAACGACTTTCGGGACGTGCTA | -0.122
TCACTTCTGGTCTTCTGACTGTGCTAG | 0.201
GACGGTATCTGGACTGGGGACGTGCTA | -0.144

Series 2 — technique: RNA Bind-n-Seq; form: RNA; matrix: in vitro; concentration: not given; reference: input RNA pool; reading: higher = stronger binding
Target: RING finger protein unkempt homolog, zinc fingers 1-6, GST-SBP tag (UNK, Homo sapiens, UniProt Q9C0B0, residues 30-357)
UniProt Q9C0B0, sequence (30-357, looked up): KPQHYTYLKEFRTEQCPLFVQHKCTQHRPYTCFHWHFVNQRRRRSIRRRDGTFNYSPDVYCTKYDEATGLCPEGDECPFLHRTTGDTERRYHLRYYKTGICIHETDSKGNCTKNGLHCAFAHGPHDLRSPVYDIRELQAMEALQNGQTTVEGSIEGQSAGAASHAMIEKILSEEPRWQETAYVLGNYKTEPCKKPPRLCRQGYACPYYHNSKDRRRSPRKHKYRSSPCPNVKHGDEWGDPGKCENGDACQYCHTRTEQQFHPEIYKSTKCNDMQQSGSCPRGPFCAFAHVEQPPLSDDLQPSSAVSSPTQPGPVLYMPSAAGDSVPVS
Notes: RNA with constant flanks, human-mouse chimeric sites, ends assumed
Strand | bound/input enrichment [ratio]
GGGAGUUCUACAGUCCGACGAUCAAAGUGAUGACUAUGUUUGUACAGCGACAGGUAUUUUCGGAGAGCAAGGAUGAGAUUGCGUUAGUCCUCUAUGGCACAGAUGGCACUGAUAAUGCCCUUGCUGGCAAGGACCAGUAUCAGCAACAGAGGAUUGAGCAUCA | 0.106
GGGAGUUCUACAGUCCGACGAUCUUUGUAUUUAUGCUAAGCACACGUGCUGGUGGUCUUGGCAUCAAUCUUGCAACUGCUGAUGUAGUCAUUUUAUAUGAUUCUGAUUGGAAUCCGCAAGUUGAUCUUCAGGCUAUGGACCGUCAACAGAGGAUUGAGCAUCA | 0.232
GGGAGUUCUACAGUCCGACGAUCCUAAUCCCCUUUACUGCUCCCCCACUUCUCAUGGUAAUAACAAAGUCUUAUAUCCCCGUCCUAGCUUUCACUCAGAUGGCUUAUGGAGCCGGUUUCCUAGCUUUCUUGGGUGGGAUCAGACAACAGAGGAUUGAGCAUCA | 0.31
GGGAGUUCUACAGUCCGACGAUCCUAGCAGUCCAGCAGCUAGAAGGAGCCUUGAGACAAAGCCUGGAAAUACAGGGAAGGCGAUAACAUUGUACAUUGGUUUACAUUUUUUCCCCCUGUGGAUUUUUCUAGAGGUCAUAGUGCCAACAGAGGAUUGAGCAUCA | 0.488
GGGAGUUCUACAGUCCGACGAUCUUACUUUUGACUCCCUGGGUCAAGUUCCUGUGGGAAUCAUACAGGCAGUGUUUGGACCUUCUUCGAAACAAUUCUAGAGUAGAGCGCCUUUACCAUGAUAUCGCCCAACAAGCUUUCAAACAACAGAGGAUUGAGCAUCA | 0.151
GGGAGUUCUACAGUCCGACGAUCAGAAUCUUGGGACUGUUUUACUUAAUUGGUCAUUGAUAGCUUAACAAACAUGGAGAUGAGAUUAGAAAUCUUGACAUCAACAGGUAUUAAGCAGAAAAAACCCUGGCCACGUGUCUCCUGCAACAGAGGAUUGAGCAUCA | 0.148
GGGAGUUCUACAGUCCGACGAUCCUCAUGGCUGCAGAAACAGGAAGUGGAAAAACUGGUGCUUUUAGUAUUCCCGUUAUCCAGAUAGUGUAUGAAACUCUGAAAGACCAACAGGAAGGCAAGAAAGGGAAAACAACUAUUAAACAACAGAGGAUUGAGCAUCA | 0.704
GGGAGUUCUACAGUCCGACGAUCGAUAAGAAAAACUUGUUGGAGACCCGCUUGCAUGUCACUGGUAGAGACCUGAGGUGUCAAAUAGCUGAAACUUUCGGAUUUCAAGAAAAUUAUAUCAAGAUCGUAAUAAAUAAGAAACAGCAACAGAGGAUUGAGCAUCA | 0.489

Series 3 — technique: protein binding microarray; form: double-stranded DNA, one strand shown; matrix: in vitro; concentration: not given; reference: not given; reading: higher = stronger binding
Target: Histone acetyltransferase KAT6A, winged helix 2, GST fusion (KAT6A, Homo sapiens, UniProt Q92794, residues 85-181)
Notes: 8-mer, flanks averaged, mean of 2 arrays, mostly near background
Target sequence (chain): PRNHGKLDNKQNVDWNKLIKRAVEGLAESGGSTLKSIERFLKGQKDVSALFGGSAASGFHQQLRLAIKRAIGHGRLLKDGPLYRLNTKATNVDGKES
Strand | E-score
AAGCTATC | -0.00722
CAGGATAG | 0.0127
ACTATTTG | -0.0905
ACATATAC | -0.1
CGATTAGA | -0.0393
GTCCCCGA | 0.0557
AAACTGGG | 0.0141
CAGCCCGA | 0.0615
CAGCAGTC | -0.0258
ACATGAAA | 0.00959
GACGGATC | -0.00175
ACTTGTAT | -0.2
GAGGAGCA | -0.0101
GAACGAAA | -0.0676
GCCTGAGA | 0.0157
GTAAAGGA | -0.106
AATAGGAT | -0.0473
AGTTTGAA | -0.0182
AGTGGCAG | -0.0506
GCGTGCGA | 0.113
AACGCCAT | -0.131
ACCGATAA | 0.0648
GAAATGAA | 0.159
GCCGTCCA | 0.176

Series 4 — technique: RNA Bind-n-Seq; form: RNA; matrix: in vitro; concentration: 365 nM; reference: no-protein control; reading: higher = stronger binding
Target: RNA binding protein fox-1 homolog 2, RRM domain, GST-SBP tag (RBFOX2, Homo sapiens, UniProt O43251-10, residues 100-194)
Notes: natural RNA segment, single round, ends assumed
Construct (chain): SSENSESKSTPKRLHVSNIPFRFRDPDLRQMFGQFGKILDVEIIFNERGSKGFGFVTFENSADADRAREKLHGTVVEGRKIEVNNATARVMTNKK
Strand | RBNS enrichment (R)
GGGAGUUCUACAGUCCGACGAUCGAGGCAUUCAUACAGAGCUGCAGUUAGGCAGAGUUGCGGGGCUAGAAGCAGAAGCAGACAUCCCAUUGCACCAGGACAGAGUACGGGACUUCACUCGGCAAGCAGCCCUGUGGAAUUCUCGGGUGCCAA | 0.562
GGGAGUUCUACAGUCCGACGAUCCAAAUUGGUAUUUUUAAAGAUGUAACAUACUUUUUUUUUUAGGUCUCUAGCUACCCACAAGGGAAGUGUAUAGCAUAAAAAGUCUAAGUAGCAUAUCCUGUCCUGAAAGUUGGAAUUCUCGGGUGCCAA | 0.308
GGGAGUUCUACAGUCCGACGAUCCCUGUCAGAAAGGUUUUCCUCUGUGCUACCCUUAACUUAGGGAUGAACAGACUAUAACUAGGAAAGGAGGAAAGGUAUCAGGGAUUUUUAAGUCCGUUUAGAGAGCAAACUGGAAUUCUCGGGUGCCAA | 0.396
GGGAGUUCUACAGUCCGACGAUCAUAGUUCUAGCACUUUUAAAUUUUUCCUUUCCAUACAACGCUUGGGCCAGCCUCUCUGUGCUGCGUGGCUGUCGGUCCCCCUCAGCUGGGAAAGAGAGCACUGGCUCACUUGGAAUUCUCGGGUGCCAA | 0.625
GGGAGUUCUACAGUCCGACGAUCGCCCCGUGUAGGCAUCGUCGGUCGGUUUGCCGUCAGAGAUGGCGCAUCUCGCUGCAUCCCCCGAGAGUACACCGGUUGCUCUAGCCACCUGCGGCCCGCCCAUCUGCGCUUGGAAUUCUCGGGUGCCAA | 0.389
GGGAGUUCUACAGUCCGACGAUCAAACCAGAACAGUAGAAGUAGCCAAUCGUAAGACCUGAAGACAUUUUGAAUGUCCCACUGGACUAACCUUUCUUUUGAUGUGUGUUUUUAGUUUAGAAGUGCUAUAUUCCUGGAAUUCUCGGGUGCCAA | 0.377
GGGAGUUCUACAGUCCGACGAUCUUUUAGGCAACCACUCUCAAAAACAGCUUUAGAAUUUAUGCCCAGUUUUCUUGCAUUGAAAGAUAACUGAGUAAUAACCUGUAACUAUUUUUAAAUGGCAUGAAAUUAGGUGGAAUUCUCGGGUGCCAA | 2.26
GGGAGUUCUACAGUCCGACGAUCGGUCAUAGUGUAUAAGUAGCUUCCUAGGAAACCCUUUGUGUAUCUUUUCAGACUGGGGUGGGGGCUGAGCAUGCUUGUGCAGAAAGAAGCCAUAGCCAGAAAGGACAGAAUGGAAUUCUCGGGUGCCAA | 3.69

Repeated from above (series 4):
Strand | RBNS enrichment (R)
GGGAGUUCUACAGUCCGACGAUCGAGGCAUUCAUACAGAGCUGCAGUUAGGCAGAGUUGCGGGGCUAGAAGCAGAAGCAGACAUCCCAUUGCACCAGGACAGAGUACGGGACUUCACUCGGCAAGCAGCCCUGUGGAAUUCUCGGGUGCCAA | 0.562
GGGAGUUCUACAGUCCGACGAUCCAAAUUGGUAUUUUUAAAGAUGUAACAUACUUUUUUUUUUAGGUCUCUAGCUACCCACAAGGGAAGUGUAUAGCAUAAAAAGUCUAAGUAGCAUAUCCUGUCCUGAAAGUUGGAAUUCUCGGGUGCCAA | 0.308
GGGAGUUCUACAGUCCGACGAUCCCUGUCAGAAAGGUUUUCCUCUGUGCUACCCUUAACUUAGGGAUGAACAGACUAUAACUAGGAAAGGAGGAAAGGUAUCAGGGAUUUUUAAGUCCGUUUAGAGAGCAAACUGGAAUUCUCGGGUGCCAA | 0.396
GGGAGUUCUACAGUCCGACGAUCAUAGUUCUAGCACUUUUAAAUUUUUCCUUUCCAUACAACGCUUGGGCCAGCCUCUCUGUGCUGCGUGGCUGUCGGUCCCCCUCAGCUGGGAAAGAGAGCACUGGCUCACUUGGAAUUCUCGGGUGCCAA | 0.625
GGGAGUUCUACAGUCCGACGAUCGCCCCGUGUAGGCAUCGUCGGUCGGUUUGCCGUCAGAGAUGGCGCAUCUCGCUGCAUCCCCCGAGAGUACACCGGUUGCUCUAGCCACCUGCGGCCCGCCCAUCUGCGCUUGGAAUUCUCGGGUGCCAA | 0.389
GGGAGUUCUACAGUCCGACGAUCAAACCAGAACAGUAGAAGUAGCCAAUCGUAAGACCUGAAGACAUUUUGAAUGUCCCACUGGACUAACCUUUCUUUUGAUGUGUGUUUUUAGUUUAGAAGUGCUAUAUUCCUGGAAUUCUCGGGUGCCAA | 0.377
